Assay results gathered from unrelated publications.
Protocols differ between the studies behind these lines. “And” joins repeats or separate records; there may be more than shown. Numbers after ± are the reported error.
Bcl-2-related protein A1 C113S/P104K: Bcl-2-related protein A1 (Mus musculus, UniProt Q07440, C113S/P104K)
Enpp1: Ectonucleotide pyrophosphatase/phosphodiesterase family member 1 (Enpp1, Mus musculus, UniProt P06802)
folA: Dihydrofolate reductase (folA, Staphylococcus aureus, UniProt P0A017)
OXA-48: Beta-lactamase OXA-48 (OXA-48, Klebsiella pneumoniae, UniProt Q6XEC0)
guaB: Inosine-5'-monophosphate dehydrogenase (guaB, Staphylococcus aureus, UniProt Q2YVL6)

Chains of the proteins cited; added tags and fusions are not shown. Residues count along the entry.
UniProt Q07440, 1-152 P104K/C113S limits assumed: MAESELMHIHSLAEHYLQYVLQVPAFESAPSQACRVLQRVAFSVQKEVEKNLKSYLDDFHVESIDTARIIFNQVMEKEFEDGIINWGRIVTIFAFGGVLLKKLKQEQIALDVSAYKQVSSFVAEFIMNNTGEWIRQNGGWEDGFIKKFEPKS
UniProt Q07440, whole entry P104K/C113S, looked up: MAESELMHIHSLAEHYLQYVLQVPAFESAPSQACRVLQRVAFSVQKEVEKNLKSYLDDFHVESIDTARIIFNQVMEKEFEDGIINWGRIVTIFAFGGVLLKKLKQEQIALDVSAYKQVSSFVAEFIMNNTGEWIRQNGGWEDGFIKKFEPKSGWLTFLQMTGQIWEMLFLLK
UniProt P0A017, whole entry: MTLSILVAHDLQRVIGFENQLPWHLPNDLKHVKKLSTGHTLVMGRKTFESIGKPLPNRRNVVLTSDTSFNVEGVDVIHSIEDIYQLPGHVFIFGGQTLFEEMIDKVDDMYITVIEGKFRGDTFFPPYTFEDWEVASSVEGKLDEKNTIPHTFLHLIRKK
UniProt Q6XEC0, 23-265 limits assumed: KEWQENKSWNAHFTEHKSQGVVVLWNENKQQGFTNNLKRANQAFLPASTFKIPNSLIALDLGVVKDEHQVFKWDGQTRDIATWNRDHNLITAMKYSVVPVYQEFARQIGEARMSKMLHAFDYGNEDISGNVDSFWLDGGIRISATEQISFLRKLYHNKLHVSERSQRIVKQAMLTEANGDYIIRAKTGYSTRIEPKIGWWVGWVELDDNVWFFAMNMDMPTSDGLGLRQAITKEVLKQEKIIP
UniProt Q6ZMT4, 92-488 limits assumed: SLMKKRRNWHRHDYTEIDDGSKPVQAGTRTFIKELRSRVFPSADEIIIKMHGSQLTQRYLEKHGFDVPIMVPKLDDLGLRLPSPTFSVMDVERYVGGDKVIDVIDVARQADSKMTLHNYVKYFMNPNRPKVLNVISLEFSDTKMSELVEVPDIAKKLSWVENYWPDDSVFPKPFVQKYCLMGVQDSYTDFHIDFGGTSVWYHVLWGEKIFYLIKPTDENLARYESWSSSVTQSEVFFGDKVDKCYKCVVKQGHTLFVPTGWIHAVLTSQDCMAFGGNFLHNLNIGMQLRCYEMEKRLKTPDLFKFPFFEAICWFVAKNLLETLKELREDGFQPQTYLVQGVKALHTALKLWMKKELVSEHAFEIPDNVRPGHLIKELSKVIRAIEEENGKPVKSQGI
UniProt P42866, whole entry: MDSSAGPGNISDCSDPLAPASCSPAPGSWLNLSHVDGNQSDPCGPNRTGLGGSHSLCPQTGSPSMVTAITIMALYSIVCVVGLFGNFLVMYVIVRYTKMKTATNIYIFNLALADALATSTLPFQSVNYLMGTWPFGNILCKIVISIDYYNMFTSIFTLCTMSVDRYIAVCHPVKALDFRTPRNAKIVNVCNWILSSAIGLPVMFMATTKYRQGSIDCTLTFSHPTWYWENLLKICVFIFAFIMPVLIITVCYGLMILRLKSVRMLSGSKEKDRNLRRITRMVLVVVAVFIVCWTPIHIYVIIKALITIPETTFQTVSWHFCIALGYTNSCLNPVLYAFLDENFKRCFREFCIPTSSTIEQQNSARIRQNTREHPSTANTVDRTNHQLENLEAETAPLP
UniProt P22303, 32-614 limits assumed: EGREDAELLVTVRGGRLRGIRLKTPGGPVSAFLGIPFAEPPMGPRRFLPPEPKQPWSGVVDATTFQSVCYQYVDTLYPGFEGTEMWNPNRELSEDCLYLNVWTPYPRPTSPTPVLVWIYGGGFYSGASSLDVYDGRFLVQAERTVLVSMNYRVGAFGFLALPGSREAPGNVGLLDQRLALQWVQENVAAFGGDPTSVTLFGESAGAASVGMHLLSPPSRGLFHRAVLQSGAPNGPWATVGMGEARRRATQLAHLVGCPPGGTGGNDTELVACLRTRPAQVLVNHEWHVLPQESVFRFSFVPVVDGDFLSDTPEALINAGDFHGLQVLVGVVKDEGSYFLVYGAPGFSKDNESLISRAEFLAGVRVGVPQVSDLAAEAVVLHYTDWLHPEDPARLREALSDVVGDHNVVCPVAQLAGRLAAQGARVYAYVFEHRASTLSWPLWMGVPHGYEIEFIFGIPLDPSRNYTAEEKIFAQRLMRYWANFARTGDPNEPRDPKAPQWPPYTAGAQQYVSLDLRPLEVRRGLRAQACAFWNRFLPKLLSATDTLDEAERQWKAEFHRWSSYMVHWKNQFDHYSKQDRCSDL
UniProt P28223, whole entry: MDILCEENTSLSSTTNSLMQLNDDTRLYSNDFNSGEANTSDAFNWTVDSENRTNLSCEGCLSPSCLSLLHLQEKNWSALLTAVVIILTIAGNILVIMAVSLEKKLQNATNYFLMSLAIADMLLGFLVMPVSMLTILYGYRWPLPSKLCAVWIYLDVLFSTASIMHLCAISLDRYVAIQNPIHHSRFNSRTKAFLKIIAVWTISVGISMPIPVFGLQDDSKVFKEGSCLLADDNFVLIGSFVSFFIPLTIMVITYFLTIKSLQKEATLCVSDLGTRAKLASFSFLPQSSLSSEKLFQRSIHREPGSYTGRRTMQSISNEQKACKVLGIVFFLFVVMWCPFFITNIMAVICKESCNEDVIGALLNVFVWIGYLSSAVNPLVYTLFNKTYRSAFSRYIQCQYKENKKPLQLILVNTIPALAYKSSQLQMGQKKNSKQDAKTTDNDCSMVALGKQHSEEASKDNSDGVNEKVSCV
UniProt P34972, whole entry: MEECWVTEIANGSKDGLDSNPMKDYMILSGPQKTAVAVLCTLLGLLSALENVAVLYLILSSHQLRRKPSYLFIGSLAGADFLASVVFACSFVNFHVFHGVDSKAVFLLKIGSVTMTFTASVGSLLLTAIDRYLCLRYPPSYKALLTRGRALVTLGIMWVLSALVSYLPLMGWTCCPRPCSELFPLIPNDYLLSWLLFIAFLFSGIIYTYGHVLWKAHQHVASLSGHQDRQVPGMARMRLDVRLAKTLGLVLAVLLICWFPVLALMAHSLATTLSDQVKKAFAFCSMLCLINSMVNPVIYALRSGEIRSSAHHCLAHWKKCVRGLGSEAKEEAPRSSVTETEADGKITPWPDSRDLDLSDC
UniProt P14416, whole entry: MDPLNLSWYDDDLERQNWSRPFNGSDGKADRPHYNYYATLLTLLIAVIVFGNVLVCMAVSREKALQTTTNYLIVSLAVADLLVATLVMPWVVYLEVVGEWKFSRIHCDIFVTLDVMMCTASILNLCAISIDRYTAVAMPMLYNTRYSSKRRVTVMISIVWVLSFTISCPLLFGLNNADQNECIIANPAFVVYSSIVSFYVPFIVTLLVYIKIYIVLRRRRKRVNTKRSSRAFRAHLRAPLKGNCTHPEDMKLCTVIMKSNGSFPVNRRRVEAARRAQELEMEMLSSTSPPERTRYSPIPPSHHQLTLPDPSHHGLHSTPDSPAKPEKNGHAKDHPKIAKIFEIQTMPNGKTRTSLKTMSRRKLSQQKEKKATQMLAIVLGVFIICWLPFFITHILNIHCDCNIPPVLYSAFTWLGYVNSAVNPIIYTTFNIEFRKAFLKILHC
UniProt P00811, 20-377 limits assumed: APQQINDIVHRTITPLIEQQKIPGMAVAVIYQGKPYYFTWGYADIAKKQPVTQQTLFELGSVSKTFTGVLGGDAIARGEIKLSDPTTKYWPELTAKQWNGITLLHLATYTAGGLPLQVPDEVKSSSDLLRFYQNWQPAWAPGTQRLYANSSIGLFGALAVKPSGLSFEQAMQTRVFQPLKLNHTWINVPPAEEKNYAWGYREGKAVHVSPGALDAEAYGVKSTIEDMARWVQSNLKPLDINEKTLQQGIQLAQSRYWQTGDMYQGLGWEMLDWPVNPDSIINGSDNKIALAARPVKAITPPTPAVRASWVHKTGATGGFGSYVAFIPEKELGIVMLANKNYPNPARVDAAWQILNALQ
UniProt C7C2U7, 1-163: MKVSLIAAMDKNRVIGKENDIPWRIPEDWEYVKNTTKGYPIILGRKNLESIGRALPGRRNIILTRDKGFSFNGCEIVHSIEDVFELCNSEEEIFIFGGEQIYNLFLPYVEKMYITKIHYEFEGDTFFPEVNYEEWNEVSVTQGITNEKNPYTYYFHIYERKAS
UniProt Q01959, whole entry: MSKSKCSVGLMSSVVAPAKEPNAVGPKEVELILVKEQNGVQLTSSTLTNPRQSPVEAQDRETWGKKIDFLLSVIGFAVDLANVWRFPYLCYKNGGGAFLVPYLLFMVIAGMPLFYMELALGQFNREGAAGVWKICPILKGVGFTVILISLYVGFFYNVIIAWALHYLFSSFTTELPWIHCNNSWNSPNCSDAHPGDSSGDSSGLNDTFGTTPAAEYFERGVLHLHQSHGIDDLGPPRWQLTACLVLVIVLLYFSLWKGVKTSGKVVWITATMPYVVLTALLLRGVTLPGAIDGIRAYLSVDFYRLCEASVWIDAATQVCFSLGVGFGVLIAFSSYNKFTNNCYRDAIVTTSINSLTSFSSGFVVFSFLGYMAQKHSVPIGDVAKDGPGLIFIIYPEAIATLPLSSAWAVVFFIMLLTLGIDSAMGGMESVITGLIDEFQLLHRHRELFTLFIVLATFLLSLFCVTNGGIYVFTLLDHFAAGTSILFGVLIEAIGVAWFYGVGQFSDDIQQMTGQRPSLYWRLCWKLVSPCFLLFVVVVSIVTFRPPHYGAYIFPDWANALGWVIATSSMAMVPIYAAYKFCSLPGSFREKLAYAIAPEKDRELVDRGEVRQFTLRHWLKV
UniProt Q48485, 24-384 limits assumed: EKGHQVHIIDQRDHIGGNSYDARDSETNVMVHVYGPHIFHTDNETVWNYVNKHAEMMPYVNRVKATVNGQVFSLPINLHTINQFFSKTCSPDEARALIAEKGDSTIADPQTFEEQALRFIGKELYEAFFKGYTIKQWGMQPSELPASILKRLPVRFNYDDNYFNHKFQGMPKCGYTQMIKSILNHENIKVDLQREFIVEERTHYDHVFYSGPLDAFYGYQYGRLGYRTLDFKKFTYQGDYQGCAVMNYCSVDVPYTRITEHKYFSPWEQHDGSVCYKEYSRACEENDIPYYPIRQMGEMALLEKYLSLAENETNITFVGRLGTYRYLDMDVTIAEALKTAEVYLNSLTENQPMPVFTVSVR
UniProt Q8RLA6, 21-275 limits assumed: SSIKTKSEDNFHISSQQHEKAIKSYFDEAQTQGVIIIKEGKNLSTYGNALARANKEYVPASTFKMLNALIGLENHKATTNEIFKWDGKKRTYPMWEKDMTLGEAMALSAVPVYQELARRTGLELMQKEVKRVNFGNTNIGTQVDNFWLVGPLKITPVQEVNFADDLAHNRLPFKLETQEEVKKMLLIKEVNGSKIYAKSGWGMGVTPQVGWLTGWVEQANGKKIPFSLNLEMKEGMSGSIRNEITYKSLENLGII
UniProt Q8I719, whole entry: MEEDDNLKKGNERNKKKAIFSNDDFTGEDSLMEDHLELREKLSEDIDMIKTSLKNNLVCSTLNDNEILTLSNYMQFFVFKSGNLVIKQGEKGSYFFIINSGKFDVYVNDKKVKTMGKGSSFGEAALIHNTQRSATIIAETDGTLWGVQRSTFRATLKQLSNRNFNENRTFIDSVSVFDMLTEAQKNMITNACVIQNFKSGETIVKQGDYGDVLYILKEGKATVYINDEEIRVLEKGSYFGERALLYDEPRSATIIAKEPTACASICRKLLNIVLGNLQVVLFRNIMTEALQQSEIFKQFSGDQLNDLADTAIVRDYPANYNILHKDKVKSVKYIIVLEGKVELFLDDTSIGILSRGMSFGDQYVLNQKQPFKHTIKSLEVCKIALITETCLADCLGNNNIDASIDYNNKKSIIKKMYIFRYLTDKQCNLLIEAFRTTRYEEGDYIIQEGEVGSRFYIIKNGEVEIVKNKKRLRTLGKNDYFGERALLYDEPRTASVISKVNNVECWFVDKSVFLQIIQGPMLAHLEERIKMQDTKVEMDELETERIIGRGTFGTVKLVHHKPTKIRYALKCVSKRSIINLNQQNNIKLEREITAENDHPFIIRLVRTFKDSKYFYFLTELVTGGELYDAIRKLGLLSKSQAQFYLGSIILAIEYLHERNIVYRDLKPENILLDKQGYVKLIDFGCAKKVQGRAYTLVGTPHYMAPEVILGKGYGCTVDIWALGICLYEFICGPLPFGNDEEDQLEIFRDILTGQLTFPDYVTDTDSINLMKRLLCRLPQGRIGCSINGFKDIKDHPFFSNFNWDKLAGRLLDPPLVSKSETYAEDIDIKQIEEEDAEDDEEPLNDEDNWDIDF
UniProt Q2TR58, 19-280 limits assumed: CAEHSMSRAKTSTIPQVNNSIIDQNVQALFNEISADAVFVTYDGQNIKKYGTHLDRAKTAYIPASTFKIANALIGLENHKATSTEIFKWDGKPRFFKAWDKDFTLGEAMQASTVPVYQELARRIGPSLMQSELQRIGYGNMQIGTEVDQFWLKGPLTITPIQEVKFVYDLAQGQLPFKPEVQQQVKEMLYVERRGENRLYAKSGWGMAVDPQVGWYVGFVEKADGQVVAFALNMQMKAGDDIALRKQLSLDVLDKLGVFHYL
UniProt P0AD64, 22-286 N270D limits assumed: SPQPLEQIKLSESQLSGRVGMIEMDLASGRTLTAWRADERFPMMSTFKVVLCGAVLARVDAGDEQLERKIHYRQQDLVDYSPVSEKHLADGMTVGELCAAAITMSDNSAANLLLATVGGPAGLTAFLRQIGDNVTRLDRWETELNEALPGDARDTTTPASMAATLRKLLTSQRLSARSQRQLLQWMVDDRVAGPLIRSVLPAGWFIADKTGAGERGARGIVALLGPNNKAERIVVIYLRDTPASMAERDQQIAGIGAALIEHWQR

Structure (SMILES)	target	test	system	setting	Ki
CC(C)(C)c1ccc(CNc2nc3[nH]c(CN4CCOCC4)cc(=O)n3n2)cc1	CAB1 (Saccharomyces cerevisiae, UniProt Q04430)	enzyme activity, inhibitor, ADP-Glo, Lineweaver-Burk		together with: ATP 1000 µM	0.114 µM
O=[N+]([O-])c1cc(N=Nc2c(O)ccc3cc(S(=O)(=O)O)ccc23)c(O)c([N+](=O)[O-])c1	Bcl-2-related protein A1 C113S/P104K	binding, inhibitor, fluorescence polarization competition		together with: FITC-Noxa peptide, Kd 20 nM	3.49 µM
COc1cc2c(N(C)C)nc(NCCCN(C)C)nc2cc1OCCCCCN	Lysine-specific demethylase 7A, Jumonji domain (KDM7A, Homo sapiens, UniProt Q6ZMT4)	demethylase activity, inhibitor, mass spectrometry		together with: H3K9me2 peptide	2.1 µM
CNC(=O)COCC(=O)NCCCCCCCNC(=O)COCC(=O)N[C@@H]1CC[C@@]2(O)[C@H]3Cc4ccc(O)c5c4[C@@]2(CCN3CC2CC2)[C@H]1O5	Oprm1 (Mus musculus, UniProt P42866)	binding, radioligand competition	MOR-CHO cell membranes	together with: [3H]naloxone 2 nM	0.00918 ± 0.00344 µM
COc1ccc(NC(=O)CSc2nc3c(N)ncnc3[nH]2)cc1OC	Enpp1	enzyme activity, inhibitor, coupled luciferase AMP detection		pH 7.4, together with: cGAMP 5 µM	> 10 µM
COCCCNc1cc(C(=O)NC2CC3CCC(C2)N3c2ccc(C(=O)NCc3ccccc3)cn2)ccc1C(N)=O (centres unmarked)	Heat shock protein 90 (Plasmodium falciparum, UniProt Q8IC05)	fluorescence polarization		full-length protein, together with: FITC-geldanamycin tracer	0.046 ± 0.0068 µM
CCc1nc(N)nc(N)c1C#CC(C)c1cc2c(c(-c3ccc(CC(=O)O)cc3)c1)OCO2 (centres unmarked)	folA	inhibitor			0.002 ± 7e-05 µM
CCCCCCCCCCCCNC(=O)N[C@H](C(=O)N[C@H]1/C=C/CCNC(=O)/C=C/[C@H](C)NC1=O)C(C)C	PSMB7 (Homo sapiens, UniProt Q99436)	trypsin-like activity, inhibitor, Proteasome-Glo	ARD	24 h	0.162 ± 0.0504 µM
Nc1nc2c(ncn2[C@@H]2CC[C@H](OC(C(=O)O)P(=O)(O)O)C2)c(=O)[nH]1 (relative stereo)	Gag-Pol polyprotein, reverse transcriptase (gag-pol, Human immunodeficiency virus type 1 group M subtype B, UniProt P04585)	mixed inhibitor		together with: varying dGTP, poly rC.dG	0.506 µM
CC(C)(NC(=O)Nc1ccc(Cl)cc1)c1cccc(C(=N)NO)c1	IMPDH 2, Staphylococcus aureus, Y446C	inhibitor		together with: 8 mM NAD+, 1.0 mM IMP	3.8 ± 0.4 µM
O=S(=O)(O)c1ccc2c(c1)Cc1cc(S(=O)(=O)O)ccc1-2	OXA-48	enzyme activity, inhibitor			0.5 mg/L
O=C(CC1CCCC1)NC1CCN(c2ncnc3c2nc(-c2ccccc2Cl)n3-c2ccc(Cl)cc2)CC1	CNR1 (Homo sapiens, UniProt P21554)	binding, radioligand displacement	CHO cell membranes	together with: [3H]CP55940	0.002 µM
O=S(=O)(O)c1ccc(-c2ccc(S(=O)(=O)O)cc2)cc1	OXA-48	enzyme activity, inhibitor			1.4 mg/L
CC(=NO)c1cccc(C(C)(C)NC(=O)Nc2ccc(Cl)c(-c3nc(C(F)(F)F)cs3)c2)c1	guaB	inhibitor		together with: 1000 µM IMP and 1000 µM NAD+	0.013 ± 0.002 µM
CO[P@@]1(=O)OC[C@H]2COC(=O)C2=C(C)O1 (relative stereo)	ACHE (Homo sapiens, UniProt P22303)	enzyme activity, inhibitor, noncovalent binding constant			0.21 ± 0.14 µM
COc1ccc2[nH]cc(CCN(C)Cc3cccc(Br)c3)c2c1	HTR2A (Homo sapiens, UniProt P28223)	binding			> 10 µM
O=C(NC1CCN(c2ncnc3c2nc(-c2ccccc2Cl)n3-c2ccc(Cl)cc2)CC1)C1CCCCC1	CNR2 (Homo sapiens, UniProt P34972)	binding, radioligand displacement	CHO cell membranes	together with: [3H]CP55940	0.84 µM
O[C@H](c1ccc(F)cc1)C(F)(F)CCN1CCC(O)(c2ccc(Cl)cc2)CC1 (racemic)	D(2) dopamine receptor, long isoform (DRD2, Homo sapiens, UniProt P14416)				1.8 ± 0.196 µM

Structure (SMILES)	target	test	system	setting	Ki
O=C(Cc1cccs1)NC(B(O)O)c1cccc(C(=O)O)c1 (centres unmarked)	ADC-7 beta-lactamase (Acinetobacter baumannii, UniProt Q6DRA1)	inhibitor			0.011 ± 0.001 µM
Cc1o[nH]c(=O)c1S(=O)(=O)Nc1cccc(-c2nnsc2Cl)c1	Beta-lactamase (ampC, Escherichia coli K-12, UniProt P00811)	inhibitor, spectrophotometric			36 µM
COc1cccc2c(N3CCC(CCP(=O)(O)O)CC3)c(C#N)cnc12	Enpp1	enzyme activity, inhibitor, coupled luciferase AMP detection		pH 7.4, together with: cGAMP 5 µM	< 0.002 µM
CC(C)(NC(=O)Nc1ccc(Cl)c(-c2nc(C(F)(F)F)cs2)c1)c1cccc(C(N)=NO)c1	IMPDH 2, Staphylococcus aureus, Y446C	inhibitor		together with: 8 mM NAD+, 1.0 mM IMP	1.17 ± 0.005 µM
CCc1nc(N)nc(N)c1C#CC(C)c1cc2c(c(-c3ccc(C(=O)O)cc3)c1)OCO2 (centres unmarked)	Dihydrofolate reductase (Staphylococcus aureus, UniProt C7C2U7)	inhibitor			0.004 ± 0.0006 µM
C[C@@H]1CN(C)CCN1c1nc(-c2ccc(F)cc2)cs1	SLC6A3 (Homo sapiens, UniProt Q01959)				7 µM
CC(=O)c1cccc(C(C)(C)NC(=O)Nc2ccc(Cl)c(-c3nc(C(F)(F)F)cs3)c2)c1	guaB	inhibitor		together with: 1000 µM IMP and 1000 µM NAD+	0.025 ± 0.001 µM
Cc1ccc(C(C)C)cc1Oc1nccc(-c2c(-c3ccc(C(F)(F)F)cc3)ncn2[C@H]2CC[C@@H](N)C2)n1	Bromodomain-containing protein 4, BD1 (BRD4, Homo sapiens, UniProt O60885)	binding			0.0041 ± 0.0011 µM
Nc1cc(S(=O)(=O)O)cc2cc(S(=O)(=O)O)cc(O)c12	OXA-48	enzyme activity, inhibitor		0.2 nM enzyme, together with: nitrocefin 30 µM	12 µM and < 10 µM and 11.7 µM
CCN(CCNc1ccc(C)c2sc3ccccc3c(=O)c12)CC(C)(C)O	Bcl-2-related protein A1 C113S/P104K	binding, inhibitor, fluorescence polarization		together with: FITC-labelled Noxa peptide	16.9 µM
O=C(O)CC1Sc2nnc(-c3cccs3)n2N=C1c1ccc(Cl)cc1 (centres unmarked)	UDP-galactopyranose mutase (Klebsiella pneumoniae, UniProt Q48485)	enzyme activity, competitive inhibitor, Lineweaver-Burk			12 ± 5 µM
O=C(O)c1ccc(-c2cccc(C(=O)O)c2)cc1	Beta-lactamase (blaOXA-33, Acinetobacter baumannii, UniProt Q8RLA6)	enzyme activity, inhibitor		enzyme 0.2 nM, together with: nitrocefin 30 µM	118.4 ± 0.9 µM
CS(=O)(=O)Cc1onc(-c2cccc(Cl)c2)c1-c1ccnc(N[C@@H]2CCN(Cc3nccs3)C2)n1	cGMP-dependent protein kinase (PKG, Plasmodium falciparum, UniProt Q8I719)	kinase activity, inhibitor, IMAP			0.0446 ± 0.0075 µM
O=S(=O)(O)c1ccc2cc(S(=O)(=O)O)ccc2c1	Beta-lactamase OXA-58 (OXA-58, Acinetobacter baumannii, UniProt Q2TR58)	enzyme activity, inhibitor		enzyme 0.1 nM, together with: nitrocefin 30 µM	> 100 µM and 120 µM
O=C(Cc1cccs1)NCB(O)O	bla (Klebsiella pneumoniae, UniProt P0AD64, N270D)	enzyme activity, inhibitor		together with: nitrocefin competitor	36 ± 4 µM
O=C(O)C(Cc1nn[nH]n1)[C@@H]1CCN[C@H]1C(=O)O (relative stereo)	Grik2 (Rattus norvegicus, UniProt P42260)	binding	Sf9 cells	cloned homomeric receptor, together with: [3H]kainate	61 µM
CCCC1c2ccccc2C=NN1C(=O)/C=C/c1cc(Cc2cnc(N)nc2N)cc(OC)c1OC (racemic)	folA	inhibitor		pH 7	0.0012 µM

Some of these lines once more:
Structure (SMILES)	target	test	system	setting	Ki
O=S(=O)(O)c1ccc2c(c1)Cc1cc(S(=O)(=O)O)ccc1-2	OXA-48	enzyme activity, inhibitor			0.5 mg/L
O=C(CC1CCCC1)NC1CCN(c2ncnc3c2nc(-c2ccccc2Cl)n3-c2ccc(Cl)cc2)CC1	CNR1 (Homo sapiens, UniProt P21554)	binding, radioligand displacement	CHO cell membranes	together with: [3H]CP55940	0.002 µM
O=S(=O)(O)c1ccc(-c2ccc(S(=O)(=O)O)cc2)cc1	OXA-48	enzyme activity, inhibitor			1.4 mg/L
CC(=NO)c1cccc(C(C)(C)NC(=O)Nc2ccc(Cl)c(-c3nc(C(F)(F)F)cs3)c2)c1	guaB	inhibitor		together with: 1000 µM IMP and 1000 µM NAD+	0.013 ± 0.002 µM
CO[P@@]1(=O)OC[C@H]2COC(=O)C2=C(C)O1 (relative stereo)	ACHE (Homo sapiens, UniProt P22303)	enzyme activity, inhibitor, noncovalent binding constant			0.21 ± 0.14 µM
COc1ccc2[nH]cc(CCN(C)Cc3cccc(Br)c3)c2c1	HTR2A (Homo sapiens, UniProt P28223)	binding			> 10 µM
